Assay results of several laboratories.
Each numbered part is a random draw from the data of one study; scales do not carry over between parts. Positions count from the first letter of the parent shown.

Study 1
Target: Ras GTPase-activating protein-binding protein 1, C-terminal RGG region (G3BP1, Homo sapiens, UniProt Q13283)
Chain of UniProt Q13283 (whole entry, looked up): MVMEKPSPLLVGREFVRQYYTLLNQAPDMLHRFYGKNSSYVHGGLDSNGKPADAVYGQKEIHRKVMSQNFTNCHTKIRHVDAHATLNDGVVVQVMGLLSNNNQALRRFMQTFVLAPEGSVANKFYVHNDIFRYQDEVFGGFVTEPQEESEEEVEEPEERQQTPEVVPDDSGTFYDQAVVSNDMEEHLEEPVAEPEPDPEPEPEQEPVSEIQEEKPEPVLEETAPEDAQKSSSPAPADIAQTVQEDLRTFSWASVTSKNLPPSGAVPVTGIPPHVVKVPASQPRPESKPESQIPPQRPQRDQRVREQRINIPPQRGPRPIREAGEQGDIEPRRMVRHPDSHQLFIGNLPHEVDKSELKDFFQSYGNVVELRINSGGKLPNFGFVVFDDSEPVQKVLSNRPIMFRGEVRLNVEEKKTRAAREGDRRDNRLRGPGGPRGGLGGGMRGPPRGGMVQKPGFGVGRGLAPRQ
Method: RNA Bind-n-Seq
Molecule type: RNA
Sample: in vitro
Concentration: 1 µM
Notes: whole 134-nt RNA, ends assumed
Together with: 150 mM KCl
Reference: input library
Reading: higher = stronger binding
Shared flanks, not repeated: GGGAGUUCUACAGUCCGACGAUC … UGGAAUUCUCGGGUGUCAAGG
Sequence	log2 enrichment
GUCCUGUGCUACACAUCGUAUGUACCGAAUCGGGAAAGGGUUUUUUUGGGUUUUUGGGAAAGUAUUAUGUUACGCCGUUCGGAUCUGCAC	-0.421
UCCUGUGCUACACAUCGUAUGUACCGAAUCGGGGAGGGGAAAAAAAGGGGUUUUUGGGGAAAGUAUUAUGUUACGCCGUUCGGAUCUGCA	1.83
AAGUCCUGUGCUACACAUCGUAUGUACCGAAUCGGAAAAAGGUUUUUGGUUUUUGGAAAGUAUUAUGUUACGCCGUUCGGAUCUGCACUU	-2.17
UGGAUCUUGGAGGGACCAACUUCCGUGUGCUUUGGGUGAAAGUAACGGACAAUGGGCUCCAGAAGGUGGAGAUGGAGAAUCAGAUCUAUG	-1.62
AAGUCCUGUGCUACACAUCGUAUGUACCGAAUCGGAAAAAAAGGUUUUUGGAAAGGAAAGUAUUAUGUUACGCCGUUCGGAUCUGCACUU	-2.32
GUCCUGUGCUACACAUCGUAUGUACCGAAUCGGGUUUUUGGGUUUUUGGUUUUUGGGGAAAGUAUUAUGUUACGCCGUUCGGAUCUGCAC	-0.872
AAGUCCUGUGCUACACAUCGUAUGUACCGAAUCGGGAAAAAGGGAAAGGGUUUGGGAAAGUAUUAUGUUACGCCGUUCGGAUCUGCACUU	1.36
GCAGGUAGUAAAAACAAAUGGAAAUGCUUCGGAUAGUGGCAGGGGUGGGGGUUGCUAAGGAAAGGGUGGGAUGGGAGUGGGUAAAGAGUU	1.61
GGAGGAAGUAAAAACAAAUGGAAAUGCUUCGGAUAGUGGCAGGGGUGGGGGUUGCUAAGGAAAGGGUGGGAUGGGAGUGGGUAAAGAGUU	2
UACCAUGGUGGAAGUUCCCGUUCUCGUAGCAGUAUUUUCCAUGCAGGAAAAAGCCAAGGACUACAUGAAAACAACAUACCUGACAAUGAA	-0.468
UGGGAGGUGGAUUUUGUUUAUUUUUUUAGCUCAUUUCCAGGGGUGGGAAUUUUUUAUUAAUAUGUGUCAUGAAUAAAGUUGUUUUUGAAA	3.69
CACAGACAACACGCACCCACACAGACACAGAGCGAAGGGGUUGGGAUGGGGACAGGGUGCACAGCAGGGCGGGGUAGGACCCCAGCCCCU	-0.237
CUGUGCUACACAUCGUAUGUACCGAAUCGGAAAAAAAGGGGAAAAAAAGGGAAAAAAAGGGGAAAGUAUUAUGUUACGCCGUUCGGAUCU	-1.29
AGUCCUGUGCUACACAUCGUAUGUACCGAAUCGGAAAAAAAGGUUUGGAAAAAAAGGAAAGUAUUAUGUUACGCCGUUCGGAUCUGCACU	-2.14

Study 2
Target: Interferon regulatory factor 7, full length, phosphomimetic (IRF7, Homo sapiens, UniProt Q92985, residues 1-503, S471D/S472D/S475D/S476D/S477D/S483D/S484D/S487D)
Method: protein-binding microarray
Molecule type: double-stranded DNA, one strand shown
Sample: in vitro
Concentration: 2200 nM top
Notes: 60-bp whole probe
Together with: salmon DNA 0.4 mg/ml
Reference: random background probes
Reading: higher = stronger binding
Shared flanks, not repeated: GCCTAGCAC … GTCTTGATTCGCTTGACGCTGCTG
Construct (chain): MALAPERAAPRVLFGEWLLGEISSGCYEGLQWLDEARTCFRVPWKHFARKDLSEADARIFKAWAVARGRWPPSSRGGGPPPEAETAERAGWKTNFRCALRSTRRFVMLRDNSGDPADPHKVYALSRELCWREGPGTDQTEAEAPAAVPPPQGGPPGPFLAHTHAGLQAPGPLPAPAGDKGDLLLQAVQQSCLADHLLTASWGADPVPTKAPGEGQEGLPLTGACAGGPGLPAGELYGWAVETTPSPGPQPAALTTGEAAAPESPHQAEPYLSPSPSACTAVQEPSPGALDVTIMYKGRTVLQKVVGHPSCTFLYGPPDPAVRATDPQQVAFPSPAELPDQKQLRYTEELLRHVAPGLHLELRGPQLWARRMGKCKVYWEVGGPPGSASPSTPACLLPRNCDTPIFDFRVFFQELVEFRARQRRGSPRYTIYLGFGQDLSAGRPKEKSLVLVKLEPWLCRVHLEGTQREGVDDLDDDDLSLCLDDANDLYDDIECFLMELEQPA
Sequence	fitted relative affinity [z-score]
TTAGGACTGGGGCTCGGTTAGTGCTAG	-0.781
TCAACTTTCTGAATGCCACTGTGCTAG	4.31
GACGGACTGCTTTTCCTGAAGTGCTAG	0.455
TCAGGAAACTTAAACTAGACTGTGCTA	-1.03
GCCGGTATCGACTTTCGGGACGTGCTA	3.23
GACGGTATCGGCCTGGGGACGTGCTAG	-0.555
TTAGATTTCAGTTTCCATTAGTGCTAG	4.4
GACGGACTTGACACTGGGGACGTGCTA	-0.513
GACGATTGCAGTTTCGAGACGTGCTAG	3.34
TCATTTTACTTTCTGAAACTGTGCTAG	3.72
TTAGATATCAGTTTCAATTAGTGCTAG	0.91
GGCGGACTGCTTCTCCTGACGTGCTAG	-0.204
GACGCACTGGGGTTTCGGGACGTGCTA	0.856
GACGGACTGCTACTGCTAACGTGCTAG	-0.131
GACGGTAGCGACACTGGGGACGTGCTA	-0.732
GACGGAGTGGGGACTGGGGACGTGCTA	-0.64
TTAGGTTTCCGTTCCCTTTAGTGCTAG	5.11
TTAGAACTGGGGACTGGAGTAGTGCTA	-0.527

Study 3
Target: RING finger protein unkempt homolog, zinc fingers 1-6, GST-SBP tag (UNK, Homo sapiens, UniProt Q9C0B0, residues 30-357)
Chain of UniProt Q9C0B0 (30-357, looked up): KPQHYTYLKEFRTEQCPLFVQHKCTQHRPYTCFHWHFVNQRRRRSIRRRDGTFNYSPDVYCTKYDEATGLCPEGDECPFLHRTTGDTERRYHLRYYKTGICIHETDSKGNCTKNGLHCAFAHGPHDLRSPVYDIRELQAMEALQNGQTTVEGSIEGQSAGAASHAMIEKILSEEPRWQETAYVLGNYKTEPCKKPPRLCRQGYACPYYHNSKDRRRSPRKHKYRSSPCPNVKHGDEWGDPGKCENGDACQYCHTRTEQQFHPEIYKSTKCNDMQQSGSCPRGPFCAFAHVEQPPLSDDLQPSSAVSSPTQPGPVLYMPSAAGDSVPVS
Method: RNA Bind-n-Seq
Molecule type: RNA
Sample: in vitro
Concentration: not given
Notes: RNA with constant flanks, human and mouse sites, ends assumed
Reference: input RNA pool
Reading: higher = stronger binding
Shared flanks, not repeated: GGGAGUUCUACAGUCCGACGAUC … CAACAGAGGAUUGAGCAUCA
Sequence	bound/input enrichment
GAAUUCAUGCAUGAGACCCAUGAUGGAGUCCAGGAUAUGGCUUGUGACACAUUUAUUAAAAUAGCUCAAAAAUGCCGUAGGCAUUUUGUUCAGGUUCAAGUUGGAGAAGUAAUGCCGUUC	0.49 ratio
ACCGUGCACAUUGCAUGUACUCCUCAGGCUGCCAAGGCAAUAAGCAACAAGGACCAGCAUAGCAUAUCAUAUACUUUAUCUCGAGCCCAGACGGUGGUGGUUGAAUAUACUCAUGACAGC	3.2 ratio
UUCUAAACCUUCCUCUGACCCCCCUUGUAUCAUUGAGAAACUGUGUUCCUUACAUGAUGGCCUAGUUUUGGAAGCAAAGGGGAUAAAGGAACAUUUCUGGAAACCCUAUAUUAGGAAACU	0.486 ratio
GUUCUUUUAUUACUUUCAUCUAUACACUUCCAGUGUCGAAGGCUGGACAGAUCUGCUCAUUUUAGCACCUUGGCAAUUAAACAGAAUCCCCUUCUAGCAGAAGCCUAUUCGAAUUUGGGA	3.09 ratio
GGAUUCUAUGAGUUUCUAAAUUGGUUUGAUGAAAGAGCAUGGUACCCACUGGGAAGAAUAGUGGGUGGCACCGUUUACCCAGGGUUGAUGAUAACAGCUGGCCUUAUUCAUUGGAUUUUA	0.221 ratio
AAUGAAUCUGAAGUUGAACCAUCUGUAAAUGCUGAUCUUAAACAAAUGAAUGAAAAUUCUGUGACACACUGUUCUGAAAAUAAUAUGCCGUCUUCUGAUCUUGCGGAUGAAAAGGUUGAA	0.224 ratio
UCUCCAGAAUCAGAUACUGAACGAGAAAAGGAUAAAAAAGAAAAAGAUCGGGACAGUGAAAAAGACAGAAGUAGACAGAGAUCAGAAUCAAAACACAAAUCACCUAAGAAAAAGACUGGA	0.562 ratio
UCCACCAACCAGAUCUCCCUCGUGCAGUGGCCAGUGUACAUGGUGGACUAUUCCGGACUAAACGUGCAGCUUCCGGGCCCCCUUGAUUAUUAGACCUCAGAGCCGAAUCAGGACCUCAAC	0.486 ratio
GUGGACAUGGCAGCACAGGUGGCUGCAGGAAUGGCUUACAUCGAGCGCAUGAAUUAUAUCCAUAGAGAUCUGCGAUCAGCAAACAUUCUAGUGGGGAAUGGACUCAUAUGCAAGAUUGCU	0.583 ratio
CAUAUAAAGCAAAAUGGAAAAUUAGAAGAUAACCCUUGCUCUGGUAGUCCUCCGAGGACUACAUUGUUGGGGACCAUAUUUUCGCCUGUCUUCAACUUUUUUUCACCAGCAAAUAAAAAU	0.209 ratio
CCUGAAACUCCAAAGCAAAAAGGUGAAGGCCGGCCUGAAACUCCAAAACAUAGGCAUGAAAAUAGGAGGGAUUCUGGAAAGCCAUCAACAGAGAAGAAACCCGAUGUGUCUAAGCAUAAA	0.778 ratio

Study 4
Target: BATF, bZIP domain (human)
Method: DHFR protein complementation
Sample: yeast
Notes: single substitutions, most at no-binding floor
Reference: wild-type JUN-FOS pair
Reading: higher = stronger binding
Starting sequence: JUN, bZIP domain (human); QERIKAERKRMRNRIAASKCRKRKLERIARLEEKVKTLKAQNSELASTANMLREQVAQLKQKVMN; partner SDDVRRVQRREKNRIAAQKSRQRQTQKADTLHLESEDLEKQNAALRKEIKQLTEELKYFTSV
Substitution	binding fitness
Q55M	-0.126 natural log
K36I	-0.163 natural log
Q41V	-0.0267 natural log
L31R	-0.324 natural log
T48C	-0.0825 natural log
A49R	0.064 natural log
A49V	-0.0456 natural log
A49L	-0.134 natural log
V35L	-0.0631 natural log
A57K	-0.00706 natural log
E32F	-0.338 natural log
A49K	-0.17 natural log
K39P	-1.19 natural log
Q58W	-0.165 natural log
K36R	0.0539 natural log
E44R	-0.0725 natural log
Q41S	-1.24 natural log
E44H	-0.0688 natural log
A57H	-0.0524 natural log
E32N	-0.263 natural log
E54C	-0.173 natural log
Q55G	-0.477 natural log

Study 5
Target: Histone acetyltransferase KAT6A, winged helix 2, GST fusion (KAT6A, Homo sapiens, UniProt Q92794, residues 85-181)
Method: protein binding microarray
Molecule type: double-stranded DNA, one strand shown
Sample: in vitro
Concentration: not given
Notes: 8-mer, flanks averaged, mean of 2 arrays, mostly near background
Reference: not given
Reading: higher = stronger binding
Residues (chain): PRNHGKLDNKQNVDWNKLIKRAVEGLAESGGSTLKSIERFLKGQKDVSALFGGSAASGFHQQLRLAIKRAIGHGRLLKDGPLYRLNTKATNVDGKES
Sequence	E-score
AGGATTTA	-0.0088
TACTCAGA	0.155
GAGTAAAA	0.0696
CGGAAAAA	0.064
ACAACAAA	0.103
AGTGTTAA	0.0105
GGTTTTGA	0.18
GCAGCGTA	-0.0855
CAGCTCCG	0.152
AACCCACG	-0.0685
AAGCTGAA	0.0397
CGTCTCGC	0.0228
ATGAGTTC	-0.124
AAATCCGT	-0.0579
ATGTGCTA	-0.162
GATTAAGA	-0.0622
ATATGCCA	0.0774
AACTTGAC	0.00543
AAGCCCCC	0.00147
GGCCGTTA	-0.0164
ACGTTATC	-0.22
TAAATTCA	-0.0159
CCTGGAAG	-0.00488

Study 6
Target: Sal-like protein 4, full length isoform A (SALL4, Homo sapiens, UniProt Q9UJQ4, residues 1-1053)
Chain of UniProt Q9UJQ4 (whole entry, looked up): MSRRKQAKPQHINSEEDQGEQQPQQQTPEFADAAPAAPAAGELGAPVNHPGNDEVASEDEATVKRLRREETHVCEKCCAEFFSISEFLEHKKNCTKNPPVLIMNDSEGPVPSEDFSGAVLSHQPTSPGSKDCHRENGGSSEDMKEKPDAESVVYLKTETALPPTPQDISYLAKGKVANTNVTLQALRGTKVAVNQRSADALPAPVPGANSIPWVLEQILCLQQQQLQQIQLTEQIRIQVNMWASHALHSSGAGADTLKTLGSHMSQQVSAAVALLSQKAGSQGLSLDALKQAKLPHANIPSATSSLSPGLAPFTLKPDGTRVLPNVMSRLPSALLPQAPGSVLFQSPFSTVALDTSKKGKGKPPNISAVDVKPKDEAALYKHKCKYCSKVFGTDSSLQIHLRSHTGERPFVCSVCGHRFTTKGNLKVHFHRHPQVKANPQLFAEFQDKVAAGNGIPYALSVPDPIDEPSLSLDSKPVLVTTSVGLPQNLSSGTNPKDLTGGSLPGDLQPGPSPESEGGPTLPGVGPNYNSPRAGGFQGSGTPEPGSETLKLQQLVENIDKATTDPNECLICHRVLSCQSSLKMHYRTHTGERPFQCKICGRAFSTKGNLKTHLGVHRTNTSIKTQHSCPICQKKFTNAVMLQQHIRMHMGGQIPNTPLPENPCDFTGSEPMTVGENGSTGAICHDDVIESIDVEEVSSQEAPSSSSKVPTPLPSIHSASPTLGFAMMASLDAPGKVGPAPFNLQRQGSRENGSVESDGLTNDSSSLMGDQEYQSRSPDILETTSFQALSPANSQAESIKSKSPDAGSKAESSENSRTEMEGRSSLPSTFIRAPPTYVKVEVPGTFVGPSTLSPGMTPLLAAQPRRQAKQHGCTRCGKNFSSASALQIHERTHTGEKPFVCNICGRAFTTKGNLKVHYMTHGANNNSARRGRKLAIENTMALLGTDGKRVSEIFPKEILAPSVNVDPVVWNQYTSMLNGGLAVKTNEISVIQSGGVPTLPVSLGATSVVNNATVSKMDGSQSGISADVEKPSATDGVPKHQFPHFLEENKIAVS
Method: universal PBM
Molecule type: double-stranded DNA, one strand shown
Sample: in vitro
Concentration: 600 nM
Notes: 8-mer, flanks averaged, mean of replicates
Reading: higher = stronger binding
Sequence	E-score
ACAGACCT	-0.0424
CCGTGCCA	-0.23
ACAGGCCA	-0.24
AGAAGTAT	0.268
ATCTGGTC	-0.0423
GAATTTGA	0.131
ATCTGTCC	-0.153
GGCTGGGA	-0.231
ATGCAAAA	0.305
ACATCTTA	0.097
ACCTATTC	0.0609
GACCCTGC	-0.148
GAAGTTCA	0.154
AGCCCACC	-0.295
TTACATAA	0.359
TACCTCGA	0.0926
AGTTTGTC	0.0715
AGTAAGAA	0.203
CGTTTGTC	-0.175
CAGGCGAA	-0.0285
ATCCCACG	-0.141
CCACAAAC	0.0633
CTTCTGTC	-0.0198
